{"data": "Measured values of several laboratories", "note": "Compare with care: the assays were run in different laboratories. Numbers after ± are the reported error."}
{"Structure (SMILES)": "[O-][S+]1CCc2nc(N3CCC(c4ncc(Cl)cn4)CC3)nc(NC3(CO)CCC3)c21 (centres unmarked)", "assay": "measured: abdominal distension", "system": "healthy male humans", "conditions": "12 mg twice daily", "endpoint": "adverse event incidence", "result": "0%"}
{"Structure (SMILES)": "COc1ccc([C@@H](O)c2cc(-c3ncnc4cc(N5CCOCC5)ccc34)c(F)cc2Cl)nn1", "system": "patients, advanced solid tumours", "conditions": "oral, 400 mg twice daily, treatment-emergent, added: avelumab", "endpoint": "hypotension incidence", "result": "1%"}
{"Structure (SMILES)": "C[C@]1(CO)Cc2ncn(-c3ccc(C#N)c(Cl)c3)c2C(=O)O1", "system": "human", "conditions": "3 mg multiple doses, fasted", "endpoint": "subjects with drug-related headache", "result": "0%"}
{"Structure (SMILES)": "CCC[C@@](N)(CO)CCc1ccc(OCCCCCC(C)C)cc1", "system": "male hound dog, plasma", "conditions": "oral, 2.5 mg/kg, solution, geometric mean", "endpoint": "AUC(0-inf)", "result": "2470 nM·h"}
{"Structure (SMILES)": "C[C@@H](NC(=O)N1C(=O)[C@H](Cc2ccnc(N)c2)[C@H]1C(=O)O)C1CCCCC1", "system": "healthy adult Chinese volunteers", "conditions": "continuous intravenous infusion, 2.25 mg/kg/h, 5-day infusion, CTCAE 5.0 grading", "endpoint": "incidence of urine erythrocyte positive", "result": "0%"}
{"Structure (SMILES)": "CC(C)(c1ccccc1)c1cc(-n2nc3ccccc3n2)c(O)c(C(C)(C)c2ccccc2)c1", "assay": "exposure assessment", "system": "human, age 6-11 years", "conditions": "sunscreen", "endpoint": "mean daily dermal uptake", "result": "0.5 ng/kg body weight/day"}
{"Structure (SMILES)": "CC(C)(c1ccc(O)cc1)c1ccc(O)cc1", "assay": "ultrafiltration", "system": "cow milk whey", "conditions": "20 nM nominal in whole milk", "endpoint": "dose fraction in permeate", "result": "19.8%"}
{"Structure (SMILES)": "Clc1ccc(-c2ccccc2)cc1", "system": "Sprague-Dawley rats, female, serum", "conditions": "inhalation, 23 µg/rat, 1 h after exposure", "endpoint": "gamma-glutamyltransferase", "result": "0.3 ± 0.6 U/L"}
{"Structure (SMILES)": "CC(=O)c1c(C)c2cnc(Nc3ccc(C4CCN(CCS(C)(=O)=O)CC4)cn3)nc2n(C2CCCC2)c1=O", "system": "conscious beagle dog", "conditions": "oral, 3, 6, 15 mg/kg", "endpoint": "cardiovascular, respiratory, temperature", "result": "no effect"}
{"Structure (SMILES)": "CCCCCCCCCCCCCCCC(=O)N[C@@H](CCC(=O)NCCCC[C@H](NC(=O)[C@H](CC(=O)O)NC(=O)[C@H](CO)NC(=O)[C@@H](NC(=O)[C@H](Cc1ccccc1)NC(=O)[C@@H](NC(=O)CNC(=O)[C@H](CCC(N)=O)NC(=O)[C@H](CO)NC(=O)[C@@H](N)Cc1c[nH]cn1)[C@@H](C)O)[C@@H](C)O)C(=O)N[C@@H](CO)C(=O)N[C@@H](CCC(=O)O)C(=O)N[C@@H](Cc1ccc(O)cc1)C(=O)N[C@@H](CC(C)C)C(=O)N[C@@H](CC(=O)O)C(=O)N[C@@H](CO)C(=O)N[C@@H](CCC(=O)O)C(=O)N[C@@H](CCCNC(=N)N)C(=O)N[C@@H](C)C(=O)N[C@@H](CCCNC(=N)N)C(=O)N[C@@H](CC(=O)O)C(=O)N[C@@H](Cc1ccccc1)C(=O)N[C@H](C(=O)N[C@@H](C)C(=O)N[C@@H](Cc1c[nH]c2ccccc12)C(=O)N[C@@H](CC(C)C)C(=O)N[C@@H](CCC(=O)O)C(=O)N[C@@H](C)C(=O)NCC(=O)NCC(=O)O)C(C)C)C(=O)O", "assay": "measured: Flatulence", "system": "humans all renal groups", "conditions": "subcutaneous, 100 µg single dose", "endpoint": "treatment-related adverse events", "result": "2.7%"}
{"Structure (SMILES)": "CN1CC[C@@H](c2c(O)cc(O)c3c(=O)cc(-c4ccc(C(F)(F)F)cc4Cl)oc23)[C@@H]1CO", "assay": "measured: Syncope", "system": "relapsed B-cell malignancies or AML", "conditions": "oral, 50 mg, grade 3-4, continuous dosing", "endpoint": "patients with adverse event", "result": "0%"}
{"Structure (SMILES)": "CC(=O)NCC(=O)NCC(=O)N[C@H](C(=O)N[C@@H](Cc1ccc(O)cc1)C(=O)N[C@@H](CO)C(=O)N[C@H]1CSSC[C@@H](C(=O)N[C@@H](CCCNC(=N)N)C(=O)N2CCC[C@H]2C(=O)N[C@@H](CCC(N)=O)C(=O)N[C@@H](CCCNC(=N)N)C(=O)NCC(=O)NCCC(=O)N[C@@H](CCCCNC(=O)CN(CC(=O)NCCCC[C@H](NC(=O)CCNC(=O)CNC(=O)[C@H](CCCNC(=N)N)NC(=O)[C@H](CCC(N)=O)NC(=O)[C@@H]2CCCN2C(=O)[C@H](CCCNC(=N)N)NC(=O)[C@@H]2CSSC[C@H](NC(=O)[C@H](CO)NC(=O)[C@H](Cc3ccc(O)cc3)NC(=O)[C@@H](NC(=O)CNC(=O)CNC(C)=O)[C@@H](C)O)C(=O)N[C@@H](Cc3c[nH]cn3)C(=O)N[C@@H](Cc3ccccc3)C(=O)NCC(=O)N[C@@H](C)C(=O)N[C@@H](CC(C)C)C(=O)N[C@@H]([C@@H](C)O)C(=O)N[C@@H](Cc3c[nH]c4ccccc34)C(=O)N[C@@H](C(C)C)C(=O)N2)C(N)=O)C(=O)CCN)C(N)=O)NC(=O)[C@H](C(C)C)NC(=O)[C@H](Cc2c[nH]c3ccccc23)NC(=O)[C@H]([C@@H](C)O)NC(=O)[C@H](CC(C)C)NC(=O)[C@H](C)NC(=O)CNC(=O)[C@H](Cc2ccccc2)NC(=O)[C@H](Cc2c[nH]cn2)NC1=O)[C@@H](C)O", "assay": "MSD immunoassay", "system": "BALB/c mice, healthy female, serum", "conditions": "subcutaneous, 0.08 mg/kg, 4 h, LLOQ 2.0 ng/mL", "endpoint": "serum concentration", "result": "not detected"}
{"Structure (SMILES)": "Nc1ncnc2c1ncn2[C@@H]1O[C@@H]2COP(=O)([S-])O[C@@H]3[C@H](O)[C@@H](COP([O-])(=S)O[C@H]2[C@H]1O)O[C@H]3n1cnc2c(N)ncnc21.[Na+].[Na+] (some centres unmarked)", "system": "non-tumor-bearing mice, serum", "conditions": "intravenous, 1 mg/kg, toxicity study", "endpoint": "total cholesterol", "result": "2.98 ± 0.87 mmol/L"}
{"Structure (SMILES)": "COc1ncccc1-c1cnn2ccc(N3CCN(C(=O)OC(C)C)CC3)nc12", "system": "mouse nerve ligation model, brain", "conditions": "oral, 10 mg/kg, 120 min after last dose, repeat dosing day 3", "endpoint": "drug concentration", "result": "4.8 µM"}
{"Structure (SMILES)": "CO[C@H]1C[C@@H]2CC[C@@H](C)[C@@](O)(O2)C(=O)C(=O)N2CCCC[C@H]2C(=O)O[C@H]([C@H](C)C[C@@H]2CC[C@@H](OC(=O)NCCOCCOCCOCCOCCOCCOCCOCCOCCC(=O)N3CCc4cc(Cn5nc(-c6ccc7oc(N)nc7c6)c6c(N)ncnc65)ccc4C3)[C@H](OC)C2)C[C@@H](O)[C@H](C)/C=C(\\C)[C@@H](O)[C@@H](OC)C(=O)[C@H](C)C[C@H](C)/C=C/C=C/C=C/1C", "assay": "dose-escalation trial", "system": "patients with advanced solid tumours", "conditions": "intravenous, all doses weekly, grade ≥3", "endpoint": "abdominal pain TEAE incidence", "result": "3.5%"}
{"Structure (SMILES)": "CC[C@H](C)[C@H](NC(=O)[C@H](C)NC(=O)[C@H](CCCCN)NC(=O)[C@H](CC(C)C)NC(=O)[C@H](C)NC(=O)[C@@H](NC(=O)[C@H](Cc1c[nH]cn1)NC(=O)[C@H](CC(C)C)NC(=O)[C@@H](NC(=O)[C@@H](NC(=O)[C@H](CCCCN)NC(=O)[C@H](C)NC(=O)[C@H](C)NC(=O)[C@H](CO)NC(=O)[C@H](CCCCN)NC(=O)[C@H](Cc1ccccc1)NC(=O)[C@@H](NC(=O)[C@H](CCCCN)NC(=O)[C@H](CC(C)C)NC(=O)[C@H](Cc1ccccc1)NC(=O)[C@H](CO)NC(=O)[C@H](CCCCN)NC(=O)[C@H](Cc1c[nH]c2ccccc12)NC(=O)[C@H](CCCCN)NC(C)=O)[C@@H](C)O)[C@@H](C)O)C(C)C)[C@@H](C)O)C(=O)N[C@@H](CO)C(=O)N[C@@H](CO)C(N)=O", "system": "minipigs, both sexes, blood", "conditions": "intravenous, 20 mg per animal", "endpoint": "C0", "result": "14400 ± 5850 ng/mL"}
{"Structure (SMILES)": "O=C(Nc1ccccc1)C1CCN(C(=O)Oc2cccnc2)CC1", "assay": "measured: metabolism and nutrition disorders", "system": "healthy women", "conditions": "oral, 100 mg, 9 days", "endpoint": "subjects with adverse event", "result": "15.4%"}
{"Structure (SMILES)": "O=C(Nc1ccc2c(c1)B(O)OC2)c1ccccc1OCc1ccccc1", "assay": "PAMPA", "system": "pre-coated trilayer membrane", "conditions": "200 µM, 5 h, pH 7.4, acceptor plate, PBS", "endpoint": "acceptor concentration", "result": "5.2 ± 0.8 µM"}
{"Structure (SMILES)": "CCCC1CCC(C2CCC(c3ccc(F)c(F)c3)CC2)CC1 (centres unmarked)", "system": "rat, placenta", "conditions": "1000 ng/mL in perfusate, middle dose, mixture of 21 LCMs", "endpoint": "median placental accumulation", "result": "6.32 ng/g"}
{"Structure (SMILES)": "CCN1[C@@H](C(=O)NC23CCC(C(=O)O)(CC2)CC3)[C@H](c2cccc(Cl)c2F)[C@]2(C(=O)Nc3cc(Cl)ccc32)C12CCCCC2", "system": "patients with advanced solid tumours", "conditions": "oral, 200 mg", "endpoint": "Neutropenia incidence", "result": "0%"}
{"Structure (SMILES)": "C=CC(=O)N[C@H]1C=C(C)c2c(-c3cnc4ccccc4c3)c3c(N)ncnc3n2C1", "assay": "two-compartment PK model", "system": "mouse, plasma", "conditions": "oral", "endpoint": "clearance", "result": "26.2 mL/min"}
{"Structure (SMILES)": "Cc1cc(C)c(CNC(=O)c2cc(Cl)c3c(c2C)O[C@@](C)([C@H]2CC[C@H](N(C)C)CC2)O3)c(=O)[nH]1", "system": "relapsed/refractory NHL patients", "conditions": "dose not given, trial, safety set, treatment-related TEAE grade 5", "endpoint": "incidence of dry skin", "result": "0%"}
{"Structure (SMILES)": "COc1cc2c(Oc3ccc4[nH]c(C)cc4c3F)ccnc2cc1OCC1(N)CC1", "system": "paediatric recurrent refractory sarcoma", "conditions": "concentration not given, whole group", "endpoint": "grade 3 Nausea", "result": "0%"}
{"Structure (SMILES)": "NCCCC[C@@H]1NC(=O)[C@@H](Cc2c[nH]c3ccccc23)NC(=O)[C@H](c2ccccc2)NC(=O)[C@@H]2C[C@@H](OC(=O)NCCN)CN2C(=O)[C@H](Cc2ccccc2)NC(=O)[C@H](Cc2ccc(OCc3ccccc3)cc2)NC1=O", "system": "healthy human volunteers", "conditions": "600 µg twice daily", "endpoint": "subjects with adverse event Nausea", "result": "54%"}
{"Structure (SMILES)": "O=C(O)CCC(CP(=O)(O)O)C(=O)O (centres unmarked)", "system": "rat, processed derivatized plasma", "conditions": "0.3 µg/mL, 18 h, 10 °C, autosampler stability", "endpoint": "measured concentration", "result": "0.338 ± 0.014 µg/mL"}
{"Structure (SMILES)": "COc1ccc(OC)c(C=CC(=O)C=Cc2cc(OC)ccc2OC)c1", "assay": "acridine orange staining", "system": "zebrafish (Danio rerio) larvae", "conditions": "up to 25 µM, larvae at 96 hpf", "endpoint": "apoptosis", "result": "no effect"}
{"note": "A few entries again:"}
{"Structure (SMILES)": "CC(=O)NCC(=O)NCC(=O)N[C@H](C(=O)N[C@@H](Cc1ccc(O)cc1)C(=O)N[C@@H](CO)C(=O)N[C@H]1CSSC[C@@H](C(=O)N[C@@H](CCCNC(=N)N)C(=O)N2CCC[C@H]2C(=O)N[C@@H](CCC(N)=O)C(=O)N[C@@H](CCCNC(=N)N)C(=O)NCC(=O)NCCC(=O)N[C@@H](CCCCNC(=O)CN(CC(=O)NCCCC[C@H](NC(=O)CCNC(=O)CNC(=O)[C@H](CCCNC(=N)N)NC(=O)[C@H](CCC(N)=O)NC(=O)[C@@H]2CCCN2C(=O)[C@H](CCCNC(=N)N)NC(=O)[C@@H]2CSSC[C@H](NC(=O)[C@H](CO)NC(=O)[C@H](Cc3ccc(O)cc3)NC(=O)[C@@H](NC(=O)CNC(=O)CNC(C)=O)[C@@H](C)O)C(=O)N[C@@H](Cc3c[nH]cn3)C(=O)N[C@@H](Cc3ccccc3)C(=O)NCC(=O)N[C@@H](C)C(=O)N[C@@H](CC(C)C)C(=O)N[C@@H]([C@@H](C)O)C(=O)N[C@@H](Cc3c[nH]c4ccccc34)C(=O)N[C@@H](C(C)C)C(=O)N2)C(N)=O)C(=O)CCN)C(N)=O)NC(=O)[C@H](C(C)C)NC(=O)[C@H](Cc2c[nH]c3ccccc23)NC(=O)[C@H]([C@@H](C)O)NC(=O)[C@H](CC(C)C)NC(=O)[C@H](C)NC(=O)CNC(=O)[C@H](Cc2ccccc2)NC(=O)[C@H](Cc2c[nH]cn2)NC1=O)[C@@H](C)O", "assay": "MSD immunoassay", "system": "BALB/c mice, healthy female, serum", "conditions": "subcutaneous, 0.08 mg/kg, 4 h, LLOQ 2.0 ng/mL", "endpoint": "serum concentration", "result": "not detected"}
{"Structure (SMILES)": "Nc1ncnc2c1ncn2[C@@H]1O[C@@H]2COP(=O)([S-])O[C@@H]3[C@H](O)[C@@H](COP([O-])(=S)O[C@H]2[C@H]1O)O[C@H]3n1cnc2c(N)ncnc21.[Na+].[Na+] (some centres unmarked)", "system": "non-tumor-bearing mice, serum", "conditions": "intravenous, 1 mg/kg, toxicity study", "endpoint": "total cholesterol", "result": "2.98 ± 0.87 mmol/L"}
{"Structure (SMILES)": "COc1ncccc1-c1cnn2ccc(N3CCN(C(=O)OC(C)C)CC3)nc12", "system": "mouse nerve ligation model, brain", "conditions": "oral, 10 mg/kg, 120 min after last dose, repeat dosing day 3", "endpoint": "drug concentration", "result": "4.8 µM"}
